Results gathered from unrelated publications.
Protocols differ between the studies behind these lines. ± gives the spread as reported.

SMILES = COc1ccccc1-c1n[nH]c2nc(NC3CCN(C(=O)Cc4ccc(F)cc4F)CC3)ncc12; assay = bead binding, competition bead pull-down, item: LINJ.35.2780; test system = Leishmania donovani extract; conditions = 10 µM; scale = baseline: vehicle; endpoint = relative abundance; value = 1.16
SMILES = CCCC[C@H]1C(=O)N(C)[C@@H](CCCC)C(=O)N[C@@H](CCCNC(=O)CN2CCN(CC(=O)O)CCN(CC(=O)O)CCN(CC(=O)O)CC2)C(=O)N[C@H](C(=O)NCC(N)=O)CSCC(=O)N[C@@H](Cc2ccc(O)cc2)C(=O)N(C)[C@@H](C)C(=O)N[C@@H](CC(N)=O)C(=O)N2CCC[C@H]2C(=O)N[C@@H](Cc2c[nH]cn2)C(=O)N[C@@H](CC(C)C)C(=O)N(C)CC(=O)N[C@@H](Cc2c[nH]c3ccccc23)C(=O)N[C@@H](CO)C(=O)N[C@@H](Cc2c[nH]c3ccccc23)C(=O)N1C [gallium-68 labelled]; test system = NOD/SCID mice with CHO-hPD-L1 xenograft, brain; conditions = 10 min post injection; endpoint = tissue uptake; value = 0.51 ± 0.08 %ID/g
SMILES = CC[C@H](C)[C@H](NC(=O)[C@H](CCCNC(=N)N)NC(=O)[C@H](CCCCN)NC(=O)[C@H](Cc1ccc(O)cc1)NC(=O)[C@H](CC(=O)O)NC(=O)[C@H](C)NC(=O)CNC(=O)CCOCCOCCOCCNC(=O)CN1CCN(CC(=O)O)CCN(CC(=O)O)CCN(CC(=O)O)CC1)C(=O)N[C@H](C(=O)N[C@H](C(=O)N[C@@H](CCCCN)C(=O)N[C@H](C(=O)N[C@@H](CC(N)=O)C(N)=O)C(C)C)C(C)C)[C@@H](C)O [copper-64 labelled]; assay = ex vivo gamma counting; test system = male C57BL/6J mouse, B16-F10 tumour, intestinal lymph node; conditions = intravenous, 1.85 MBq, 40 min; endpoint = tissue uptake; value = 0.91 ± 0.2 %ID/g
SMILES = CC(C)C[C@@H](NC(=O)[C@@H](CCCNC(=N)N)NC(=O)[C@@H](Cc1c[nH]cn1)NC(=O)[C@@H](Cc1c[nH]c2ccccc12)NC(=O)[C@@H](Cc1c[nH]cn1)NC(=O)[C@@H](Cc1ccccc1)NC(=O)[C@H](NC(=O)[C@@H](Cc1ccc(O)cc1)NC(=O)CNC(=O)CNC(=O)CCOCCOCCOCCNC(=O)CN1CCN(CC(=O)O)CCN(CC(=O)O)CC1)[C@H](C)O)C(=O)N[C@H](CC(N)=O)C(=O)N1CCC[C@@H]1C(=O)O [gallium-68 labelled]; assay = gamma counting; test system = C57BL/6 mice, male, heart; conditions = intravenous, 1.85 MBq, 60 min; endpoint = tissue uptake; value = 1.07 ± 0.21 %ID/g
SMILES = C[C@H](O)[C@@H](NC(=O)[C@H]1CCCN1C(=O)[C@@H](CCCCN)NC(=O)[C@@H](CO)NC(=O)[C@@H](Cc1ccc(O)cc1)NC(=O)[C@@H](CC(N)=O)NC(=O)CCOCCOCCOCCNC(=O)CN1CCN(CC(=O)O)CCN(CC(=O)O)CCN(CC(=O)O)CC1)C(=O)N[C@H](CC(=O)O)C(=O)N[C@H](CCCNC(=N)N)C(=O)N[C@H](CCC(N)=O)C(=O)N[C@H](Cc1ccc(O)cc1)C(=O)N[C@H](Cc1c[nH]cn1)C(=O)N[C@H](Cc1ccccc1)C(N)=O [gallium-68 labelled]; test system = BALB/c nude mice U-87 MG tumour, stomach; conditions = intravenous, 1.85 MBq, 0.5 h, radiolabelled; endpoint = tissue uptake; value = 0.61 ± 0.35 %ID/g
SMILES = CSCC[C@H](NC(=O)CNC(=O)[C@H](CCCCN)NC(=O)[C@H](CC(C)C)NC(=O)[C@@H]1CCCN1C(=O)[C@H](CO)NC(=O)[C@H](Cc1c[nH]cn1)NC(=O)[C@H](Cc1c[nH]c2ccccc12)NC(=O)[C@H](CCCNC(=N)N)NC(=O)[C@H](CC(C)C)NC(=O)[C@H](CCCNC(=N)N)NC(=O)[C@H](Cc1c[nH]c2ccccc12)NC(=O)[C@H](CS)NC(=O)CCCCCNC(=O)CN1CCN(CC(=O)O)CCN(CC(=O)O)CCN(CC(=O)O)CC1)C(=O)O [copper-64 labelled]; assay = PET; test system = C57BL/6J mice, B16-F10 tumour, kidney; conditions = intravenous, 3.5 h; endpoint = tissue uptake; value = 12.1 ± 0.97 %ID/g
SMILES = CC[C@H](C)[C@H](NC(=O)[C@H](CCCCN)NC(=O)CNC(=O)[C@H](CC(C)C)NC(=O)[C@H](Cc1ccccc1)NC(=O)[C@H](CCCCN)NC(=O)[C@H](CO)NC(=O)[C@H](Cc1ccccc1)NC(=O)[C@H](Cc1c[nH]c2ccccc12)NC(=O)[C@H](CCC(N)=O)NC(=O)[C@@H](NC(=O)[C@H](Cc1ccccc1)NC(=O)CCCCCNC(=O)CN1CCN(CC(=O)O)CCN(CC(=O)O)CCN(CC(=O)O)CC1)C(C)C)C(=O)N[C@@H](CCC(=O)O)C(=O)N1CCC[C@H]1C(=O)N[C@@H](CC(=O)O)C(=O)N[C@H](C(=O)N[C@@H](CO)C(=O)N[C@@H](CCC(N)=O)C(=O)N[C@H](C(=O)N[C@@H](CCC(N)=O)C(=O)N[C@@H](CC(=O)O)C(=O)N1CCC[C@H]1C(=O)N[C@@H](CC(N)=O)C(=O)N[C@@H](CC(=O)O)C(=O)N[C@@H](CCC(N)=O)C(=O)N[C@@H](Cc1ccc(O)cc1)C(=O)N[C@@H](CCC(=O)O)C(=O)N1CCC[C@H]1C(=O)N[C@@H](Cc1ccccc1)C(=O)O)C(C)C)C(C)C [copper-64 labelled]; test system = C57BL/6 mice, small intestine; conditions = vehicle, intratracheal instillation; endpoint = tissue uptake; value = 4.49 ± 0.5 %ID/g
SMILES = CC[C@H](C)[C@H](NC(=O)[C@H](CO)NC(=O)[C@H](Cc1ccc(O)cc1)NC(=O)[C@H](Cc1ccc(O)cc1)NC(=O)[C@H](CC(N)=O)NC(=O)CNC(=O)[C@H](CO)NC(=O)[C@H](Cc1ccc(O)cc1)NC(=O)[C@H](CO)NC(=O)[C@H](CO)NC(=O)[C@H](CC(N)=O)NC(=O)COCCOCCNC(=O)CN1CCN(CC(=O)O)CCN(CC(=O)O)CCN(CC(=O)O)CC1)C(=O)N[C@@H](CC(C)C)C(N)=O [copper-64 labelled]; assay = dynamic PET; test system = mouse, tamoxifen-induced PDAC, blood; conditions = intravenous, 0.1 µg/mouse, 3.5 min; endpoint = tumour uptake; value = 12 %ID/mL
SMILES = CN1Cc2cc(Cl)ccc2-n2c(nnc2C2CCN(c3cccc([18F])n3)CC2)C1; test system = C57BL/6 mouse male, adrenal gland; conditions = intravenous, 3.7 MBq, 30 min; endpoint = tissue uptake; value = 11.7 ± 8.31 %ID/g
SMILES = CC[C@H](C)[C@H](NC(=O)[C@H](CCCNC(=N)N)NC(=O)[C@H](CCCCN)NC(=O)[C@H](Cc1ccc(O)cc1)NC(=O)[C@H](CC(=O)O)NC(=O)[C@H](C)NC(=O)CNC(=O)CCOCCOCCOCCNC(=O)CN1CCN(CC(=O)O)CCN(CC(=O)O)CCN(CC(=O)O)CC1)C(=O)N[C@H](C(=O)N[C@@H](CC(C)C)C(=O)N[C@@H](CCCCN)C(=O)N[C@H](C(=O)N[C@@H](CC(N)=O)C(N)=O)C(C)C)[C@@H](C)O [copper-64 labelled]; assay = ex vivo gamma counting; test system = C57BL/6J male mice, B16-F10 tumour, spleen; conditions = intravenous, 1.85 MBq, 5 min; endpoint = tissue uptake; value = 5.24 ± 0.285 %ID/g
SMILES = CC[C@H](C)[C@H](NC(=O)[C@@H](Cc1c[nH]c2ccccc12)NC(=O)[C@@H]1CCCN1C(=O)[C@H](CCCCN)NC(=O)[C@H](CCCCN)NC(=O)CCNC(=O)CCNC(=O)CN1CCN(CC(=O)O)CCN(CC(=O)O)CCN(CC(=O)O)CC1)C(=O)N[C@@H](C[Si](C)(C)C)C(=O)O [gallium-68 labelled]; assay = ex vivo biodistribution; test system = nude mice, HT-29 xenograft, prostate; conditions = 90 min, with: levocabastine 0.5 µmol; endpoint = tissue uptake; value = 2.5 ± 0.43 %ID/g
SMILES = CC(C)(C)C(=O)OCOP(=O)(OCOC(=O)C(C)(C)C)C1CCCN(O)C1=O (stereo not shown); target or system = HCT-15; endpoint = log TGI; value = -4.83 log M
SMILES = O=C1NC2(CC2)COc2ncc(F)cc2[C@H]2COCCN2c2ccn3ncc1c3n2; test system = Sprague-Dawley rat, female, serum; conditions = oral, 10 mg/kg/day, end of recovery, 4-week subacute toxicity; endpoint = serum total protein; value = 64.4 ± 4.1 g/L

Repeated from above:
SMILES = CC[C@H](C)[C@H](NC(=O)[C@@H](Cc1c[nH]c2ccccc12)NC(=O)[C@@H]1CCCN1C(=O)[C@H](CCCCN)NC(=O)[C@H](CCCCN)NC(=O)CCNC(=O)CCNC(=O)CN1CCN(CC(=O)O)CCN(CC(=O)O)CCN(CC(=O)O)CC1)C(=O)N[C@@H](C[Si](C)(C)C)C(=O)O [gallium-68 labelled]; assay = ex vivo biodistribution; test system = nude mice, HT-29 xenograft, prostate; conditions = 90 min, with: levocabastine 0.5 µmol; endpoint = tissue uptake; value = 2.5 ± 0.43 %ID/g
SMILES = CC(C)(C)C(=O)OCOP(=O)(OCOC(=O)C(C)(C)C)C1CCCN(O)C1=O (stereo not shown); target or system = HCT-15; endpoint = log TGI; value = -4.83 log M
